Published values from different studies.
Compare with care: the assays were run in different laboratories. Numbers after ± are the reported error.
Cell line: HepG2

| Structure (SMILES) | effect on | action | technique | time | notes | IC50 |
| --- | --- | --- | --- | --- | --- | --- |
| COc1cc([C@@H]2OC[C@@H]3[C@H]2CO[C@H]3c2cc(OC)c(O)c(OC)c2)cc(OC)c1O | cell growth or viability | – | CCK-8 | 24 h | – | > 50 µM |
| COc1ccc(C(c2c[nH]c3ccc(Br)cc23)c2c[nH]c3ccc(Br)cc23)cc1 | cell growth or viability | – | MTT | 24 h | – | 4.23 µM |
| CCOc1cccc(/C=N/CCNc2ccccc2)c1O | cell growth or viability | – | MTT | 48 h | – | 116 µM |
| COCCSc1nc(N)c2c(F)c(C#N)c(F)c(Cl)c2n1 | cell growth or viability | – | MTT | 96 h | – | 34 µM |
| CC(=O)OC[C@H]1O[C@@H](Sc2nnc(-c3cc4ccccc4[nH]3)n2-c2ccccc2)[C@H](OC(C)=O)[C@@H](OC(C)=O)[C@@H]1OC(C)=O | cell growth or viability | – | MTT | – | – | 6.71 µM |
| CCCc1cc(O)nc(SCCOC(=O)[C@]2(C)CCC[C@]3(C)c4ccc(C(C)C)cc4CCC23)n1 (stereo partly drawn) | cell growth or viability | – | MTT | 48 h | – | 10.4 µM |
| C[C@]12CC[C@@H]3c4ccc(O)cc4CC[C@H]3[C@@H]1CC[C@@]2(O)c1cn(CC(=O)c2ccc(F)cc2)nn1 | cell growth or viability | – | resazurin | 72 h | – | 28.1 µM |
| C/C(=N\N=C1/NC(=O)CS1)c1c(O)c2ccccc2oc1=O | cell growth | – | MTT | 48 h | – | 97.6 ± 8.2 µM |
| CC(C)=CCc1c(O)cc(CO)cc1O | cell growth or viability | – | CCK-8 | 24 h | – | > 50 µM |
| COC(=O)CNC(=O)CNC(=O)CNC(=O)COc1ccc2c(C)cc(=O)oc2c1 | cell growth or viability | – | MTT | – | – | 377 µM |
| CC(C)(C)c1cc2c(O)c(c1)Cc1cc(C(C)(C)C)cc(c1OCC(=O)NCc1ccccn1)Cc1cc(C(C)(C)C)cc(c1O)Cc1cc(C(C)(C)C)cc(c1OCC(=O)NCc1ccccn1)COC2 | cell growth or viability | – | MTT | 72 h | – | 22.7 µM |
| Clc1nc2cc3c(cc2cc1-c1nc2cc(Br)ccc2[nH]1)OCO3 | cell growth or viability | – | MTT | 48 h | – | > 100 µM |
| c1ccc2c(NCCNc3ncnc4cc(OCC5CCN(CCNc6ccnc7ccccc67)CC5)ccc34)cccc2c1 | cell growth or viability | – | ATP luminescence | 72 h | – | 2.5 µM |
| NC(=S)NNC(=O)c1cc2ccc(O)cc2oc1=O | cell growth or viability | – | SRB | 72 h | – | 5.4 µM |
| C=C(C)[C@@H]1CC[C@]2(C(=O)OCO/N=[N+](\[O-])N3CCCC3)CC[C@]3(C)[C@H](CC[C@@H]4[C@@]5(C)CC[C@H](OC(C)=O)C(C)(C)[C@@H]5CC[C@]43C)[C@@H]12 | cell growth or viability | – | MTT | 72 h | – | 4.32 µM |
| O=[N+]([O-])[O-].O=[N+]([O-])[O-].[Cu+2].[Cu+2].c1ccc(-c2nc(-c3ccc4c(c3)OCO4)n[n-]2)nc1.c1ccc(-c2nc(-c3ccc4c(c3)OCO4)n[n-]2)nc1 | cell growth or viability | – | MTT | 24 h | – | 3.58 µM |
| CC(C)(O)[C@@H]1CC[C@](C)([C@H]2CC[C@]3(C)[C@@H]2CC[C@@H]2[C@@]4(C)CCC(=O)C(C)(C)[C@@H]4CC[C@]23C)O1 | cell growth or viability | – | SRB | – | – | > 100 µM |
| COc1ccc(-c2c(C#N)c(N)n(-c3nnc(NC(=O)c4ccccc4)s3)c(=O)c2C#N)cc1 | cell growth or viability | – | MTT | 48 h | – | 54.6 µM |
| C=C1CC(OC(=O)C(C)(O)CCl)C2C(=C)C(=O)OC2C2C1CC(O)C2(O)CCl (stereo not drawn) | cell growth or viability | – | – | – | – | 0.6 µg/mL |
| CC(=O)OC[C@]1(C)CCC[C@]2(COC(C)=O)[C@@H]1CC[C@@]13C[C@@H](C[C@H](O)[C@H]12)[C@@H](C)C3=O | cell growth or viability | – | MTT | – | – | > 20 µM |

| Structure (SMILES) | effect on | action | technique | time | notes | IC50 |
| --- | --- | --- | --- | --- | --- | --- |
| O=C(Cc1ccccc1)NC(=S)Nc1nccs1 | cell growth or viability | – | MTT | 48 h | – | 60.9 µM |
| Cc1nn(CCO)c2ncc(C(=O)c3cc(Cl)ccc3O)cc12 | cell growth or viability | – | MTT | – | – | > 50 µM |
| Cc1ccc2nc(Cl)c(-c3nc4cc(Cl)ccc4[nH]3)cc2c1 | cell growth or viability | – | MTT | 48 h | – | > 100 µM |
| Cc1cc(C=O)cc(C)c1Oc1cc(Nc2ccc(C#N)cc2)nc2ccncc12 | – | – | – | 48 h | – | > 127 µM |
| C=C1C(=O)[C@@]23CC[C@@H]4C(C)(C)CCC[C@@]4(CO)[C@@H]2[C@@H](O)C[C@@H]1C3 | cell growth or viability | – | MTT | – | – | 4.2 µM |
| CC(C)Cn1cc(-c2ccnc(Nc3ccc(OCCCCCCC(=O)NO)cc3)n2)nn1 | cell growth or viability | – | SRB | 72 h | – | 5.63 µM |
| O=c1cc(-c2ccc(O)c(O)c2)oc2cc(O[C@@H]3O[C@H](CO)[C@@H](O)[C@H](O)[C@H]3O)cc(O)c12 | reactive oxygen species | – | fluorescence | – | – | 174 µg/mL |
| CCn1cc(/C=C/c2sc3ccccc3[n+]2CC)c2ccccc21 | cell growth or viability | – | MTT | 24 h | – | 9.34 µM |
| O=C1CS/C(=N\N=C2/C(=O)N(CCn3ncc4c(=O)[nH]cnc43)c3ccc(Cl)cc32)N1 | cell growth or viability | – | SRB | 72 h | – | 5.37 µM |
| Cc1cc2nc(-c3cc4ccccc4nc3Cl)[nH]c2cc1C | cell growth or viability | – | MTT | 48 h | – | 7.54 µM |
| C=CC(OC(C)=O)c1ccccc1 (stereo not drawn) | – | – | MTT | 24 h | – | > 50 µM |
| O=C1CCCC2=C1C(c1cccs1)c1c([nH]c(=S)[nH]c1=S)O2 (stereo not drawn) | cell growth or viability | – | MTT | 72 h | – | 15.4 µM |
| CCCC/C=N/NC(=O)c1cc2cc(Nc3nccc(-c4cccnc4)n3)ccc2[nH]1 | cell growth or viability | – | MTT | 48 h | – | > 20 µM |
| Cc1cc(C#N)cc(C)c1Oc1cc(Nc2ccc(C#N)cn2)nc2ccncc12 | – | – | – | 48 h | – | > 127 µM |
| C=C(C)[C@@H]1CC[C@]2(COC(=O)CCC(=O)O)CC[C@]3(C)[C@H](CC[C@@H]4[C@@]5(C)CC[C@H](OC(=O)CCC(=O)O)C(C)(C)[C@@H]5CC[C@]43C)[C@@H]12 | cell growth or viability | – | SRB | 72 h | – | 8.02 µg/mL |
| Fc1ccc2[nH]c(-c3cc4cc5c(cc4nc3Cl)OCO5)nc2c1 | cell growth or viability | – | MTT | 48 h | – | > 100 µM |
| N#Cc1cccc(-c2ccc(=O)n(Cc3cccc(-c4ncc(OCC5CCN(CCCCCCCC(=O)Nc6cccc7c6C(=O)N(C6CCC(=O)NC6=O)C7=O)CC5)cn4)c3)n2)c1 (stereo not drawn) | cell growth or viability | – | CCK-8 | 72 h | – | 20.1 µM |
| CC(=O)[O-].O.O.O.O.[Co+2].[O-]c1ccc(Br)cc1C=NCCN1CCOCC1 | cell viability | – | MTT | 72 h | – | 23.2 µg/mL |
| COC(=O)CNc1cc(C[S+]([O-])c2ccc3ccccc3c2)ccc1OC (stereo not drawn) | cell growth or viability | – | MTS | 48 h | – | 4.29 µM |
| NC(=O)c1ccc(-c2ccccc2Cl)c2c3c([nH]c12)CCC(N)C3 (stereo not drawn) | cell growth or viability | – | – | – | – | 0.023 µM |

| Structure (SMILES) | effect on | action | technique | time | notes | IC50 |
| --- | --- | --- | --- | --- | --- | --- |
| CSC(=N/N=C(\C)c1ccc(S(=O)(=O)N2CCC(C)CC2)cc1)SC | cell growth or viability | – | MTT | – | – | 10.6 µM |
| COc1ccc(/C=C/C(=O)/C=C/c2cn(-c3ccccc3)nc2C(=O)O)cc1O | cell growth | – | – | 72 h | – | > 25 µM |
| C[C@@H]1O[C@@H](O[C@H]2[C@H](O[C@H]3CC[C@@]4(C)[C@@H](CC[C@]5(C)[C@@H]4CC=C4[C@@H]6CC(C)(C)CC[C@]6(C(=O)O)CC[C@]45C)[C@]3(C)CO)OC[C@H](O[C@@H]3O[C@H](CO)[C@@H](O)[C@H](O)[C@H]3O)[C@@H]2O)[C@H](O)[C@H](O)[C@H]1O | NF-κB activity | inhibitor | luciferase | – | TNF-stimulated | 8.3 µM |
| N#Cc1cccc(-c2ccc(=O)n(Cc3cccc(-c4ncc(OCC5CCN(CC(=O)NCCOCCOCCNc6ccc7c(c6)C(=O)N(C6CCC(=O)NC6=O)C7=O)CC5)cn4)c3)n2)c1 (stereo not drawn) | cell growth or viability | – | CCK-8 | 72 h | – | 7.47 µM |
| O=C(NCCc1ccccc1)c1ccccc1-n1c(=O)[nH]c2ccccc2c1=O | cell growth or viability | – | MTT | 24 h | – | 14.4 µM |
| COc1cc2nc(N3CCCN(C)CC3)nc(SC3CCN(Cc4ccccc4)CC3)c2cc1OC | cell growth or viability | – | – | – | – | 10.2 µM |
| Cc1cccc2c1NC(=O)C21C2=C(COC2=O)NC2=C1C(=O)c1ccccc1C2=O (stereo not drawn) | cell growth or viability | – | MTT | 72 h | – | 6.8 µM |
| O=C(CCCCCCN1CCN(c2ccc(Nc3ncc(F)c(-c4cn(C5CCCC5)nn4)n3)cc2)CC1)NO | cell growth or viability | – | SRB | 72 h | – | 2.66 µM |
| CCC1=C(CC)C2=[N+]3C1=Cc1c(CC)c(CC)c4[n]1[Ir-3]31([Cl])([C]#[O+])[n]3c(c(CC)c(CC)c3=CC3=[N+]1C(=C4)C(CC)=C3CC)=C2 | cell growth or viability | – | MTT | 72 h | – | > 50 µM |
| N#Cc1c(F)c(Cl)c2nc(SCc3ccc4ccccc4c3)nc(N)c2c1F | cell growth or viability | – | MTT | 96 h | – | 7.27 µM |
| C=CC(OC(C)=O)c1cc(OC)c(OC(C)=O)c(OC)c1 (stereo not drawn) | – | – | MTT | 24 h | – | > 50 µM |
| CSC(=S)N/N=C(\C)c1ccc(S(=O)(=O)N2CCC(C)CC2)cc1 | cell growth or viability | – | MTT | – | – | 4.82 µM |
| N#Cc1c(F)c(F)c2nc(SCc3ccc4ccccc4c3)nc(N)c2c1F | cell growth or viability | – | MTT | 96 h | – | 6.41 µM |
| O=C(/C=C/C=C/c1ccccc1)c1ccccc1OCc1cc(F)cc(F)c1 | cell growth or viability | – | MTT | 48 h | – | 30.8 µM |
| [Cl][Pd-2]([Cl])([N+](=Cc1ccc[nH]1)Cc1ccco1)[N+](=Cc1ccc[nH]1)Cc1ccco1 | cell growth or viability | – | MTT | 24 h | – | > 100 µg/mL |
| COc1ccc2nc(Cl)c(-c3nc4cc(Br)ccc4[nH]3)cc2c1 | cell growth or viability | – | MTT | 48 h | – | 12.2 µM |
| Cc1c(C(=O)NNC(=S)Nc2ccc(Cl)cc2)nnn1Cc1nc2ccccc2[nH]1 | cell growth or viability | – | MTT | 48 h | – | 7.68 µM |
| N#Cc1cccc(-c2ccc(=O)n(Cc3cccc(-c4ncc(OCC5CCN(CCCCCCCCC(=O)Nc6cccc7c6C(=O)N(C6CCC(=O)NC6=O)C7=O)CC5)cn4)c3)n2)c1 (stereo not drawn) | cell growth or viability | – | CCK-8 | 72 h | – | > 100 µM |
| COC(C)(C)/C=C/C[C@@](C)(O)[C@H]1CC[C@]2(C)[C@@H]1CC[C@@H]1[C@@]3(C)CCC(=O)C(C)(C)[C@@H]3CC[C@]12C | cell growth or viability | – | SRB | – | – | 19.1 µM |
| COc1cc2c(cc1-c1coc3c(CC=C(C)C)c(OC)c(OC)cc3c1=O)OCO2 | cell growth or viability | – | MTT | 72 h | – | 16 µM |
